# Results from different studies.
# Numbered parts are unrelated; each lists some results of a single study. Positions count from the first letter of the parent shown.

# Set 1
# Target: RNA binding protein fox-1 homolog 2, RRM domain, GST-SBP tag (RBFOX2, Homo sapiens, UniProt O43251-10, residues 100-194)
# Technique: RNA Bind-n-Seq
# Molecule type: RNA
# Medium: in vitro
# Tested at: 365 nM
# Notes: natural RNA segment, single round, ends assumed
# Relative to: no-protein control
# Reading: higher = stronger binding
# Residues (chain): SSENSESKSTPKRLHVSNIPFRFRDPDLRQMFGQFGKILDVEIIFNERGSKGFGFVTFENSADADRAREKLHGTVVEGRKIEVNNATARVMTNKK
Oligonucleotide,RBNS enrichment (R)
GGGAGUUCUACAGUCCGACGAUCCCAGAGACCACCACCAGGCCCGCUCCCCACUGAGCCACUUAAGAUGAGCCCCUCAUUUGCACACAGUGACCACAUGAGCUUCCACUUACCUAACAACAGCCAUUUCAGGCUGGAAUUCUCGGGUGCCAA,0.373
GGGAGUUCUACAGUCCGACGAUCGGGUCCAGCAGGGGUGGGGGGUUCCUGCUCUGCCCCUGCCCGUCCCCACCCAGUCUUGCCCUCCCAUCCUCUCAUCUAUUCCCCCGCUGGAGACGGAAGAUCUUUUAUUUUGGAAUUCUCGGGUGCCAA,0.584
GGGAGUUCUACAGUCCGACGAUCUUUAUACCAGACCAUUUUUACUAUGGAAUUUCAAGAGUUAAGGAUUGUCUUGGGAAACGUAGUCUAGAAAAAGCCACGUAGAGAAUAACGUGAUGUUCUAGAGUUGUAUGUGGAAUUCUCGGGUGCCAA,0.434
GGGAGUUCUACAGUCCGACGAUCAGUGCAUGGAGACCCCUUUAGGCUCAGGGCUGCUCGAGCUCUGACUCUAACCCUGCUCCUUCCUAGCACAGCUCUGCACAUCCAUCUCUCUCUCUUGCUGAAUGCACAUAUGGAAUUCUCGGGUGCCAA,1.12
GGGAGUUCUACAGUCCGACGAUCCAGGCAGCCUAGCCCAGCCCAGGGCACAUGGCAAGAGGGACUGGACCCACCUUUGGGUGAUGGGUGCCUUAGGUCCCCAGCAGCUGUACAGAAGGGGCUCUUCUCUCCACUGGAAUUCUCGGGUGCCAA,0.234
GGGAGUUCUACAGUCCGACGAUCCUAAAGCCGAUGUUUUGCCCUCUUUGGAAAGACUGAGAACUGUGGCCUGAUUUCGUCCAUAUUCUAGACUCUUAAGCUUGUCAAAUUCCAGAAAUGGAAAAAACUCUGCAUGGAAUUCUCGGGUGCCAA,10.8
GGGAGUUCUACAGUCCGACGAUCGCUAUGUUCAAUAUGGCAGAGCCAAAAGCCAAGUUCUAAGGCAGCCGAAAUAAAAAGCUUUGAAACCAUAGCCUUGCCUUCUGGUUUGAUUACAGGGAGCCUUGUCUGGUUGGAAUUCUCGGGUGCCAA,0.411
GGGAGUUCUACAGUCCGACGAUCAUUGUCCUGUACGGUCGGUGGCAGUGCUAUUCUGAGAUCUGUAGAUGCUUAGAAUAUCAGUAUUUUGGAUGUUGCUGCAUUUUACAAUUUAUUUGGAGUCUUCCUUUAUUUGGAAUUCUCGGGUGCCAA,2.87
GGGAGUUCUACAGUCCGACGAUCCGUCUGUCAGGAUAUUAAGCCCUGCGUCAUGUGACGGAAAGAGGCCAAGCGAUGGCCGCUCUCUCCUCUCCCCUCCUCAGAGGGGGCAGAUAGAAACUGGGACGGAUUCAUGGAAUUCUCGGGUGCCAA,0.265
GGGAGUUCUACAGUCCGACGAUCAUUCAGAGUGGGCCGGGCCCCUGGGCGAGACACAGCUACCUCUGUUGGCAUCUUUUUAAUACCAGGAACCCAGCGGCUCCAGCCACUGAGCAGCUAAAUAAAGUUGGAAAUGGAAUUCUCGGGUGCCAA,0.35
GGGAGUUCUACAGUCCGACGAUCGCCUGAACAUCGCCCUGGUGAAUGGGGUCAGUGGUGAGCUCCUAGAAGCCAGAGCCUUUGACAUGUGGGCUGGAGGUGAGUGGCCCACCACAGCAACCUACUGUAUAUUUUGGAAUUCUCGGGUGCCAA,1.32
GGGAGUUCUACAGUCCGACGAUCUCUAGAGUCCACUGAGUCACAAUGGGGGCACAUGCUCAUGACUGUGUCACUUAGGGGCGGUCCCCACACUGAGUGAGAAAGGGGCAUCUGCCCUGUUGCUACUGUGAGGAUGGAAUUCUCGGGUGCCAA,0.293

# Set 2
# Target: Histone acetyltransferase KAT6A, winged helix 2, GST fusion (KAT6A, Homo sapiens, UniProt Q92794, residues 85-181)
# Technique: protein binding microarray
# Molecule type: double-stranded DNA, one strand shown
# Medium: in vitro
# Tested at: not given
# Notes: 8-mer, flanks averaged, mean of 2 arrays, mostly near background
# Relative to: not given
# Reading: higher = stronger binding
# Residues (chain): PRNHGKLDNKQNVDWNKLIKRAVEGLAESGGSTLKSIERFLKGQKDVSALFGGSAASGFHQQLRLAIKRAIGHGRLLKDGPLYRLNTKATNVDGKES
Oligonucleotide,E-score
CGACTGGC,-0.0555
GGCCTAAA,-0.102
CGTATCCA,0.0197
ATCTCTGA,0.0206
ATTAACGA,-0.00835
CCGAAAGG,0.0926
CCCATAAC,-0.0606
AAGTCAGT,0.102
CGGTTTAC,-0.0778
GCAGCGGC,0.172
CCTGCACA,-0.187
GATGACCA,-0.0369
ATCAGAGA,0.00449
AATAAACT,0.0757
CCGTGCTA,-0.145
GCGGAACA,0.0242
CGTAGCAG,-0.00835
GGATGGAC,-0.0803
CGCCTCCC,0.167
GAGTCCTA,-0.0438
CACCTACA,-0.178
GACCACAC,-0.046

# Set 3
# Target: NFE2L2, bZIP domain (human)
# Technique: DHFR protein complementation
# Medium: yeast
# Notes: single substitutions, most at no-binding floor
# Relative to: wild-type JUN-FOS pair
# Reading: higher = stronger binding
# Parent: JUN, bZIP domain (human); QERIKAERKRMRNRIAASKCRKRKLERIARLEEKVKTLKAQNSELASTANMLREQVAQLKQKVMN; partner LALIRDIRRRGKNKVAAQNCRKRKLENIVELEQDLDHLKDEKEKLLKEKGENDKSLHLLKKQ
Variant,binding fitness
K39Q,-1.37 natural log
A29E,-1.52 natural log
E33M,-1.52 natural log
A57R,-1.19 natural log
I28Y,-1.36 natural log
L38M,-1.19 natural log
K34P,-1.51 natural log
E33G,-1.39 natural log
Q41A,-1.5 natural log
A49R,-1.45 natural log
L38F,-1.48 natural log
T48I,-1.38 natural log
S43F,-1.42 natural log
A57Q,-1.52 natural log
L52I,-1.34 natural log
A29D,-1.42 natural log
K34C,-1.35 natural log
L45I,-1.45 natural log
E44H,-1.47 natural log
E33A,-1.41 natural log
L31S,-1.48 natural log
L31V,-1.33 natural log

# Set 4
# Target: CCNE2, cyclin fold, Cln2 fusion (human)
# Technique: yeast growth competition, sequencing
# Medium: yeast
# Notes: weak parent motif
# Relative to: not given
# Reading: higher = stronger binding
# Parent: HASPIN docking peptide (human); ASLRSVLFGLMNS
Variant,normalised enrichment score
ASLRSVLFGLMAS [N12A],1.1
ASLRSVLFGLMNA [S13A],0.538
AALRSVLFGLMNS [S2A],0.231
ASLRSVLFALMNS [G9A],0.603
ASLRSVLFGAMNS [L10A],0.996
ASARSVLFGLMNS [L3A],0.0443

# Set 5
# Target: Myc proto-oncogene protein, bHLH-zipper, MAX partner unstated (MYC, Homo sapiens, UniProt P01106, residues 368-449)
# Chain of UniProt P01106 (368-449, looked up): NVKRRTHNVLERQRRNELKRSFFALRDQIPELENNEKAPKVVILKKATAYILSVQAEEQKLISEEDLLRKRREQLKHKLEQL
# Technique: protein-binding microarray
# Molecule type: double-stranded DNA, one strand shown
# Medium: in vitro
# Tested at: not given
# Notes: k-mer, scored over probes, only values ≥0.25
# Reading: higher = stronger binding
Oligonucleotide,E-score
CATGTTCC,0.299
AGCGTGCG,0.393
ATGCATGC,0.408
GCGTGTAC,0.403
CGTCGTGC,0.28
ACACGAGT,0.372
GAGGGGCA,0.284
CCCATGGC,0.309
CAAACGTG,0.331
CGTGCCGC,0.382
CACCCACG,0.432
TGCGCACA,0.323
ACGCCCCT,0.261
ACCTCGCG,0.368
ACATGTGA,0.443
CGTGCTAG,0.387
AAGGCCAC,0.265
AGCCGCAT,0.265
AGTCCACG,0.387
CACGCACG,0.424
ACATGACA,0.339
AACGTGAC,0.298
CACGCGCG,0.431
CCCCACAC,0.313
CACCACGA,0.349

# Set 6
# Target: ABI1, truncated, D143A, DHFR fusion (Arabidopsis thaliana)
# Technique: DHFR PCA, deep sequencing
# Medium: yeast
# Notes: methotrexate growth selection, single substitutions
# With: (+)-ABA 4.8 µM
# Relative to: wild-type fitted maximum
# Reading: higher = stronger binding
# Parent: PYL1, truncated, DHFR fusion (Arabidopsis thaliana); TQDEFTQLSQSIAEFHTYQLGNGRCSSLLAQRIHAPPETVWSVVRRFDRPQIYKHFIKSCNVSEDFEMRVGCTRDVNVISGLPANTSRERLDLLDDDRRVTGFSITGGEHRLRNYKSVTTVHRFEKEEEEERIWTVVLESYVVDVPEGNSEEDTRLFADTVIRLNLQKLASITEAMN
Variant,relative binding score
S26T,76.1%
Q7R,67%
W134I,78.4%
N85H,70.7%
R99E,0.878%
E147F,60.2%
H16G,7.44%
R49Q,82.5%
F47T,9.76%
V40N,-17%
V78D,-0.0182%
H16K,-8.66%
T39N,47.5%
H110Y,4.58%
D153Q,16.5%
I52A,71.5%
T106W,30.9%

# Set 7
# Target: Fragile X messenger ribonucleoprotein 1, C-terminal low-complexity region (Fmr1, Mus musculus, UniProt P35922)
# Technique: RNA Bind-n-Seq
# Molecule type: RNA
# Medium: in vitro
# Tested at: 200 nM
# Notes: whole 134-nt RNA, ends assumed
# With: 150 mM LiCl
# Relative to: input library
# Reading: higher = stronger binding
# Each molecule: 7-deaza-guanosine replaces G
Oligonucleotide,log2 enrichment
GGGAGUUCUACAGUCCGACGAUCGUCCUGUGCUACACAUCGUAUGUACCGAAUCGGUUUUUGGUUUUUGGGGUUUUUGGGGAAAGUAUUAUGUUACGCCGUUCGGAUCUGCACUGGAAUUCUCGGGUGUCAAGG,-0.611
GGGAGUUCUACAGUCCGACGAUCUGGCCCUGGUGGGAUGCGGGGAGGAAGAGGUGGCCUCAUGGAUCGUGGUGGUCCCGGUGGAAUGUUCAGAGGUGGCCGUGGUGGAGACAGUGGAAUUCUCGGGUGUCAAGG,0.84
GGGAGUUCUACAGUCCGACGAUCUGGCCCUGGUGGCAUGCGGGGAGGAAGAGGUGGCCUCAUGGAUCGUGGUGGUCCCGGUGGAAUGUUCAGAGGGGGCCGUGGUGGAGACAGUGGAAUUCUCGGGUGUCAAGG,-0.908
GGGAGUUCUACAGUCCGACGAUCUGGGAGGUGGAUUUUGUUUAUUUUUUUAGCUCAUUUCCAGGGGUGGGAAUUUUUUUUUAAUAUUUGUCAUGAAUAAAGUUGUUUUUGAAAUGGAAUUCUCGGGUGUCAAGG,0.0292
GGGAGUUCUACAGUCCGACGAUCCUCAAGUCCUGUGCUACACAUCGUAUGUACCGAAUCGGAAGGGAAGGGAAGGGAAAGUAUUAUGUUACGCCGUUCGGAUCUGCACUUCCAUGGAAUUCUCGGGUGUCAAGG,-0.025
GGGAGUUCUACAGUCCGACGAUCCAAGUCCUGUGCUACACAUCGUAUGUACCGAAUCGGUUUUGGUUUUGGUUUUGGGGAAAGUAUUAUGUUACGCCGUUCGGAUCUGCACUUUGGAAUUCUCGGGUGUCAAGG,-1.64
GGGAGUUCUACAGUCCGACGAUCCCUGUGCUACACAUCGUAUGUACCGAAUCGGGGCCCCCCGGGCCCCCCGGGGCCCCCCGGAAAGUAUUAUGUUACGCCGUUCGGAUCUGCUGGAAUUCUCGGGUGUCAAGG,-2.57
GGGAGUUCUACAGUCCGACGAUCUCCUGUGCUACACAUCGUAUGUACCGAAUCGGCCCCCCCGGGCCCCCCCGGCCCCCCCGGAAAGUAUUAUGUUACGCCGUUCGGAUCUGCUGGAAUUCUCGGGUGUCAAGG,1.54
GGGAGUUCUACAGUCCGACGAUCGUCCUGUGCUACACAUCGUAUGUACCGAAUCGGUUUUUGGGGUUUUUGGGUUUUUGGGAAAGUAUUAUGUUACGCCGUUCGGAUCUGCACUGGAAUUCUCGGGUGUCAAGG,-0.703
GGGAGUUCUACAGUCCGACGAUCUCCUGUGCUACACAUCGUAUGUACCGAAUCGGCCCCCGGGGCCCCCGGGGCCCCCGGGGAAAGUAUUAUGUUACGCCGUUCGGAUCUGCAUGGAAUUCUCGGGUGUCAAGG,-2.97
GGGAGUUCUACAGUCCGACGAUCCUCAAGUCCUGUGCUACACAUCGUAUGUACCGAAUCGGGAGGGUGGGAAAGGGAAAGUAUUAUGUUACGCCGUUCGGAUCUGCACUUCCAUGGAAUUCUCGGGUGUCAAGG,-0.669

# For quick reference, copied from above (set 6):
Variant,relative binding score
T106W,30.9%
H16K,-8.66%
D153Q,16.5%
F47T,9.76%
S26T,76.1%
W134I,78.4%
N85H,70.7%
R99E,0.878%
Q7R,67%
T39N,47.5%
